Measured values gathered from unrelated publications.
A part holds a random share of what one study measured. Substitutions count along the parent as printed.

Study 1
Target: Krueppel-like factor 3, full length (KLF3, Homo sapiens, UniProt P57682, residues 1-345)
UniProt P57682, sequence (whole entry, looked up): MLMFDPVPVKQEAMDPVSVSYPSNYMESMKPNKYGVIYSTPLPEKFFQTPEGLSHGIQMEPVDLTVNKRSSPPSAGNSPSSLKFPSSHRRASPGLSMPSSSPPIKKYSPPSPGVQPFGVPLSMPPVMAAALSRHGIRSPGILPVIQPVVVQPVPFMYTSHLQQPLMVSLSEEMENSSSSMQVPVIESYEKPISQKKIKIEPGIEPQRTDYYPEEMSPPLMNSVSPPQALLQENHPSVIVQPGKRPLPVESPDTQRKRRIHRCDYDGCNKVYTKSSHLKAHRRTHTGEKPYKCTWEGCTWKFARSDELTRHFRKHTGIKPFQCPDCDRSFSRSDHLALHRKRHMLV
Method: protein-binding microarray
Molecule type: hairpin DNA
Sample: in vitro
Tested at: not given
Setting: whole hairpin DNA, median over replicate spots
Reference: not given
Reading: higher = stronger binding
| Sequence | median fluorescence [a.u.] |
| --- | --- |
| GAGGCCGACCACGCCCAGCCTCCTGGCTGGGCGTGGTCGGCCTCACACTC (5mC at 12 32) | 8620 |
| GAGGCCGACCACGCCCAGCCTCCTGGCTGGGCGTGGTCGGCCTCACACTC (5mC at 16) | 9800 |
| GAGGCCGACCACGTCCAGCCTCCTGGCTGGACGTGGTCGGCCTCACACTC | 8800 |
| GAGGCCGACCACCCCCAGCCTCCTGGCTGGGGGTGGTCGGCCTCACACTC | 8650 |
| GAGGCCGACCGCGCCCTGCCTCCTGGCAGGGCGCGGTCGGCCTCACACTC | 9080 |
| GAGGCCGACGACGCCCAGCCTCCTGGCTGGGCGTCGTCGGCCTCACACTC (5mC at 35) | 8260 |
| GAGGCCGACCGCGCCCAGCCTCCTGGCTGGGCGCGGTCGGCCTCACACTC (5mC at 10) | 8430 |
| GAGGCCGACCTCGCCCAGCCTCCTGGCTGGGCGAGGTCGGCCTCACACTC | 8210 |
| GAGGCCGACCGCGCCCAGCCTCCTGGCTGGGCGCGGTCGGCCTCACACTC (5mC at 14) | 8690 |
| GAGGCCGACCACGCCCCGCCTCCTGGCGGGGCGTGGTCGGCCTCACACTC | 11100 |
| GAGGCCGACCACGCCCCGCCTCCTGGCGGGGCGTGGTCGGCCTCACACTC (5mC at 17) | 11600 |
| GAGGCCGACCGCGCCTAGCCTCCTGGCTAGGCGCGGTCGGCCTCACACTC | 8260 |
| GAGGCCCGCCGCGCCCAGCCTCCTGGCTGGGCGCGGCGGGCCTCACACTC (5mC at 7) | 8520 |
| GAGGCCGACCGCGCCCAGCCTCCTGGCTGGGCGCGGTCGGCCTCACACTC (5mC at 10 32 34) | 8530 |
| GAGGCCCGCCGCGCCCAGCCTCCTGGCTGGGCGCGGCGGGCCTCACACTC (5mC at 7 37) | 8730 |
| GAGGCCGACCGCCCCCAGCCTCCTGGCTGGGGGCGGTCGGCCTCACACTC | 8760 |
| GAGGCCGAGCGCGCCCAGCCTCCTGGCTGGGCGCGCTCGGCCTCACACTC (5mC at 36) | 8480 |
| GAGGCCGACCGCGCCCAGCCTCCTGGCTGGGCGCGGTCGGCCTCACACTC (5mC at 32) | 8850 |
| GAGGCCGACCGCGCCCGGCCTCCTGGCCGGGCGCGGTCGGCCTCACACTC (5mC at 16) | 8910 |

Study 2
Target: ABI1, truncated, D143A, DHFR fusion (Arabidopsis thaliana)
Method: DHFR PCA, deep sequencing
Sample: yeast
Setting: methotrexate growth selection, single substitutions
Together with: (+)-ABA 0.0091 µM
Reference: wild-type fitted maximum
Reading: higher = stronger binding
Parent: PYL1, truncated, DHFR fusion (Arabidopsis thaliana); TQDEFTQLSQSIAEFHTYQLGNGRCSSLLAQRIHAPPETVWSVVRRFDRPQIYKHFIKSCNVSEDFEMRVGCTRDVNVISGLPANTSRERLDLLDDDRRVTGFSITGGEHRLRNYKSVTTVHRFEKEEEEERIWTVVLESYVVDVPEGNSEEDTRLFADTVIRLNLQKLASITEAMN; partner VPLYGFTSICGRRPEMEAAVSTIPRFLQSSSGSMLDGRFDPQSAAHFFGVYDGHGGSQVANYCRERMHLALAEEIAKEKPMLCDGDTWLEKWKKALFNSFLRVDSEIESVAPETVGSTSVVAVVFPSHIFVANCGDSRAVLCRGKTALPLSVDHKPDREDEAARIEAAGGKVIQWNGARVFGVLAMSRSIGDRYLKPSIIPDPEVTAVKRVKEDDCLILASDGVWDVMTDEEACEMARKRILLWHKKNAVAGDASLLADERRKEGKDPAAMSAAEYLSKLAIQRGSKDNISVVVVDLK
| Substitution | relative binding score |
| --- | --- |
| D75V | 32.6% |
| S63M | 4.66% |
| D95F | -2.61% |
| D96L | -2.58% |
| I57E | -0.967% |
| I79A | 18.8% |
| T1D | 22.4% |
| T6G | 25.5% |
| S104D | -4.53% |
| E151C | 18.8% |
| D95H | -4.69% |
| S27N | 44% |
| L112E | -2.65% |
| A158S | 1.12% |
| T17R | 3.8% |

Study 3
Target: Interferon regulatory factor 5, full length, phosphomimetic (IRF5, Homo sapiens, UniProt Q13568-2, residues 1-514, K96S/S451D/S453D/S456D/S462D)
Method: protein-binding microarray
Molecule type: double-stranded DNA, one strand shown
Sample: in vitro
Tested at: 250 nM
Setting: 60-bp whole probe
Together with: salmon DNA 0.4 mg/ml
Reference: random background probes
Reading: higher = stronger binding
Constant ends, left off below: GCCTAGCAC … GTCTTGATTCGCTTGACGCTGCTG
| Sequence | log fluorescence [z-score] |
| --- | --- |
| TGAGATCTCAGTTTCGATTAGTGCTAG | 9.6 |
| CCTCCTTACTTTATGTAGGAGTGCTAG | -0.314 |
| GACGGTATCCTTCTCCTCACGTGCTAG | 0.187 |
| TCATGTTTCTCAAATGTTACTGTGCTA | 1.23 |
| TTAGGACTGGGTATCGGTCAGTGCTAG | 3.13 |
| TGAGGACTGGGACTGGGTTAGTGCTAG | -0.685 |
| TTAGGTATTGACACTGGGTTAGTGCTA | -0.0263 |
| GACGATAACGGGTTTCGAGACGTGCTA | 2.61 |
| TTAGGTCTCGGACTAGGTTAGTGCTAG | -0.171 |
| GACGTTATCCTTTTCCTGACGTGCTAG | 0.529 |
| TCAGAGATTTTTCTCAAACTGTGCTAG | 0.168 |
| CACAGAATCCCCTTCTACTCGTGCTAG | -0.17 |
| GACGGAGTGCTTATCCTGACGTGCTAG | -0.564 |
| TTAGGACTGGGTATCGGATAGTGCTAG | 0.692 |
| TTACGTTTCCTTTCCCTTTAGTGCTAG | 3.09 |
| GACGGACTGCTGTTCCTGACGTGCTAG | -0.715 |
| TTAGATTTCTGGTTTCGATTAGTGCTA | 9.14 |
| TTAGGTTTCCGTATCGGTTAGTGCTAG | 7.12 |
| CTTTCTTTATGTACTCTCTCCGTGCTA | 1.74 |
| GACGGTTTCGGATATCGGGACGTGCTA | 6.16 |
| TTAGGCTTCGGTATCGGTTAGTGCTAG | 6.04 |
| TCATGTTTTTTTCTACTTCTGTGCTAG | 1.41 |
| TTGAAAAAATATTTATTTCAGTGCTAG | 1.36 |
| GACGGACTGCTTAACCTGACGTGCTAG | -0.214 |

Study 4
Target: CCNA1, cyclin fold, Cln2 fusion (human)
Method: yeast growth competition, sequencing
Sample: yeast
Setting: weak parent motif
Reference: not given
Reading: higher = stronger binding
Parent: CDC6 docking peptide (human); TLKGRRLVFDNQL; partner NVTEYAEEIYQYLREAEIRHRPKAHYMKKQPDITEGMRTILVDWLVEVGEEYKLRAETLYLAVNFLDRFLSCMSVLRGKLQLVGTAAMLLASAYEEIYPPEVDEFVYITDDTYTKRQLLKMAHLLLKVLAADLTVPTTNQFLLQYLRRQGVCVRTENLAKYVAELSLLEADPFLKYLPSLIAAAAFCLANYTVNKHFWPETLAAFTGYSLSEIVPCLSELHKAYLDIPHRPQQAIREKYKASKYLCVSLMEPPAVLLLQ
| Substitution | normalised enrichment score |
| --- | --- |
| F9I | 0.413 |
| F9S | 0.142 |
| L2V | 0.281 |
| R6W | -0.378 |
| R5F | 0.175 |
| K3Q | 0.307 |
| L13N | 0.323 |
| T1N | -0.00523 |
| R6E | -0.211 |
| L7G | 0.35 |
| V8K | 0.428 |
| R5I | -0.111 |
| D10S | 0.452 |
| V8A | -0.184 |
| F9M | 0.46 |
| G4N | 0.0857 |
| N11I | -0.0837 |
| G4S | -0.187 |
| L2C | 0.2 |
| Q12I | 0.237 |
| D10M | 0.41 |
| R5A L7A | 0.0557 |
| V8F | 0.543 |
| D10L | 0.154 |
| F9P | 0.561 |

Study 5
Target: RING finger protein unkempt homolog, zinc fingers 1-6, SBP tag (UNK, Homo sapiens, UniProt Q9C0B0, residues 30-357)
UniProt Q9C0B0, sequence (30-357, looked up): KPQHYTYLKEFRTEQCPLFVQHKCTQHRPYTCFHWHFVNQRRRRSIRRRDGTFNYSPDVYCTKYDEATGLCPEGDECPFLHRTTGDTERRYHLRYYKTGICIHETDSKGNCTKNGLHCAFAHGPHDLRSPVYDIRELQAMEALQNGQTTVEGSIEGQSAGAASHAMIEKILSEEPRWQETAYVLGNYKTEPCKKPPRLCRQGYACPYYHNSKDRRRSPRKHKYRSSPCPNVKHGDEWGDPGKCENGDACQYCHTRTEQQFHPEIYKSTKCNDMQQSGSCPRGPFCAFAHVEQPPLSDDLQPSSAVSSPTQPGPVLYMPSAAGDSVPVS
Method: RNA Bind-n-Seq
Molecule type: RNA
Sample: in vitro
Tested at: 100 nM
Setting: RNA with constant flanks, vertebrate orthologous sites, ends assumed
Reference: input RNA pool
Reading: higher = stronger binding
Constant ends, left off below: GGGAGUUCUACAGUCCGACGAUC … CAACAGAGGAUUGAGCAUCA
| Sequence | bound/input enrichment [ratio] |
| --- | --- |
| GUUGUGACCCAUUUAACAUACACAAAAAGCUAGCCAAAAAGAAUCUGCAUGUAAUUGAUUUAGAUGAUGCCACGUUUCUGAGUGCAAAGUUUGGAAGACAGCUGGUUCCUGGUUGGAAGC | 0.713 |
| GUGUUUUGGUACCACUUGAUGUACCAAUACUCAUCCUUUUUUCAUUAUACCAACUAUCAUUAGAAGUAGGAGUUUAAUAUUUUUAAAAAUUUUACAUUGCUGUAUAUUCAAAAUUUUAAA | 0.63 |
| UUGCUUUCAGGUUGUGGCUAGUCACCCUCCUUCCCUUCCUCCACUUUAAGUUCUUUCCUUUGCACCCUUCAUAUCCCCUCUCUCAACUCAGACAGGUGUGGAGUAUUUUACUCAGUCAUU | 0.846 |
| CAGCCGAUUCACUCAUUGGGAGAGCUGCACAUAUAGCUGUUCUUGAUUCGGAAAUAUUUUUAGAGAAAUUCUUCCUGGUUGCCGCCCUCAAAUAUUUCCAGUAGGAUAAAAACAUUAUUA | 1.1 |
| UCCAUGCCACUGUCACCAAAAGCAGUCAGCUACGUUUCACAAUUUCUUUAAUAGCACUUUUAGUGUUUCCUCUUCCCUCCCCUUCCCAUUGCUUAGAUGAUAAAAGGUCCUGAGUUUUCC | 1.5 |
| AUCCCUCAGUGACAGUAUGCCAUCUGUAGCAGAUUCGCACUCUAGUCAUUUUUCUGAAUUUAGUUGUUCUGAUCUAGAAAGCAUGAAAACUUCCUGUAGUCAUGGUUCCAGUGAUUAUCA | 0.628 |
| CAACUCCAUGGUUGAGGGCUCGGAGCUCAAAAAGGUCCGGUCCAAUUCGAGGAUUUACCAUCGCUAUUUCUUACUGGACGCUGACAUGCAGAGCUUGAGGUGGGAGCCAUCCAAGAAGGA | 0.194 |
| AGUAGUUUUAAGCUUGUUUGCACAGUUCUUUUUUUCCAUUGGAAAUGGAAUUCAUUGCCUUAGGUCUUUUAAAAUAGUGUAUUAUUGUUGGGGCUGGCUCUAUGCUUGAAAACAAGUUUA | 2.9 |
| CAGUGUUUGAAGGAGAGAUCCCUGUUAUUUCUAAUAUUUGUUCUUUUUAUUAUAUUCCAGUCCAAUUUUUGAUGGAACUGGUAUAUUGGCAUUUCUCACCUAAGGAGUAACAGUUCUCUU | 0.319 |
| UCCAGUCUUACACUUAUGGUUGGCCUCAAAUCUAUUGCAUUUAUGAUAAUGUAUUAUAUCUAGUUGAGUUUAAUAUUUUUUUAUUAGCCUGUAAAUAAAGAUGGCAUCUUCUACAUUAAA | 0.555 |
| AAAUUCCCCCAUUGUCGCUGAGAACCACCAAAUCUGACUUUUACAUUUGGUCUCAGAAUUUAGUUUCCUGCCCUGUUGGUUUUUUUUUUUUUUUUUAAAAAAAAAAAACAGUUUUCAAAA | 0.338 |

Study 6
Target: FOSB, bZIP domain (human)
Method: DHFR protein complementation
Sample: yeast
Setting: single substitutions, most at no-binding floor
Reference: wild-type JUN-FOS pair
Reading: higher = stronger binding
Parent: JUN, bZIP domain (human); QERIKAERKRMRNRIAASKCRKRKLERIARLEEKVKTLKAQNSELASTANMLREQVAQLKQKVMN; partner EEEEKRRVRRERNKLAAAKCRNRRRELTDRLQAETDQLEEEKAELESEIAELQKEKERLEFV
| Substitution | binding fitness |
| --- | --- |
| E33Q | -0.275 natural log |
| R53A | -0.414 natural log |
| K34T | -0.105 natural log |
| A49W | -0.642 natural log |
| K36E | -0.0625 natural log |
| Q55G | -0.722 natural log |
| R30S | 0.0156 natural log |
| Q55V | -0.179 natural log |
| L52A | -0.853 natural log |
| A29E | -0.226 natural log |
| S43C | -0.0695 natural log |
| I28V | -0.117 natural log |
| L38V | -0.985 natural log |
| A29D | -0.204 natural log |
| K36V | -0.121 natural log |
| N42G | -1.14 natural log |
| T37L | 0.0241 natural log |
| T48A | -0.0977 natural log |
| R30F | 0.0494 natural log |
| I28K | -0.274 natural log |
| A29W | -0.293 natural log |
| V35C | -0.347 natural log |
| S47D | -0.00667 natural log |
| M51D | -0.0764 natural log |
| Q58R | -0.178 natural log |
